Experimental data from different studies.
Every numbered part comes from another study and shows a few of its results, in no order.
Chain of UniProt Q99640 (whole entry, looked up): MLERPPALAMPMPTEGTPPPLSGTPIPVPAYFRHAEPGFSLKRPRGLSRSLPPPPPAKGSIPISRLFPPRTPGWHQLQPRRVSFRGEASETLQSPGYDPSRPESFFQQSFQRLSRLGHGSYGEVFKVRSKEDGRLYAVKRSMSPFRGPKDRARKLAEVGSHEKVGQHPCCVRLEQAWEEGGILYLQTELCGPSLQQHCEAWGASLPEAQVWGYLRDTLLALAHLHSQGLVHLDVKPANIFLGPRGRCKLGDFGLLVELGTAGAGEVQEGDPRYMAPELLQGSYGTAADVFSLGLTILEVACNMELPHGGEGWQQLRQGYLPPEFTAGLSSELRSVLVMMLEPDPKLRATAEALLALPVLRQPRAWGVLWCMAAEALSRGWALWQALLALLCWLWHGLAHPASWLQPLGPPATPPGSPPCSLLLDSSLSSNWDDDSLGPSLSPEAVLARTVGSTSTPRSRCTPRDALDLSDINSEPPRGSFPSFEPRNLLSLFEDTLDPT
Chain of UniProt Q9UPE1 (whole entry, looked up): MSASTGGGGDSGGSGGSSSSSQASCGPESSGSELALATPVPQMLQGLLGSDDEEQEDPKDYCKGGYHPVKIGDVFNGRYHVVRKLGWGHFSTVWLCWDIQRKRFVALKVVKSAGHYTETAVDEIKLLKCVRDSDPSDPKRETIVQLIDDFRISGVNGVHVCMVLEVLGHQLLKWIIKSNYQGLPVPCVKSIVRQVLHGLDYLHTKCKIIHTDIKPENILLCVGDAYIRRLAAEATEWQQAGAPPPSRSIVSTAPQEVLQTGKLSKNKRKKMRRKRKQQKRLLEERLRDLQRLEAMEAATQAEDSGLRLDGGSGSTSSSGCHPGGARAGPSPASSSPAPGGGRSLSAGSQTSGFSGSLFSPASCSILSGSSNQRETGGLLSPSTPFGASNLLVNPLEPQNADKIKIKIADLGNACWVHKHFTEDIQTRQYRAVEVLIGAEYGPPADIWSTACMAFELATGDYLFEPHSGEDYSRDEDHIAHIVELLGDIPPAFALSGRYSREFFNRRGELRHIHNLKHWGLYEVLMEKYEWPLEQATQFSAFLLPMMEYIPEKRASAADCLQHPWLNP
Chain of UniProt O75582 (whole entry, looked up): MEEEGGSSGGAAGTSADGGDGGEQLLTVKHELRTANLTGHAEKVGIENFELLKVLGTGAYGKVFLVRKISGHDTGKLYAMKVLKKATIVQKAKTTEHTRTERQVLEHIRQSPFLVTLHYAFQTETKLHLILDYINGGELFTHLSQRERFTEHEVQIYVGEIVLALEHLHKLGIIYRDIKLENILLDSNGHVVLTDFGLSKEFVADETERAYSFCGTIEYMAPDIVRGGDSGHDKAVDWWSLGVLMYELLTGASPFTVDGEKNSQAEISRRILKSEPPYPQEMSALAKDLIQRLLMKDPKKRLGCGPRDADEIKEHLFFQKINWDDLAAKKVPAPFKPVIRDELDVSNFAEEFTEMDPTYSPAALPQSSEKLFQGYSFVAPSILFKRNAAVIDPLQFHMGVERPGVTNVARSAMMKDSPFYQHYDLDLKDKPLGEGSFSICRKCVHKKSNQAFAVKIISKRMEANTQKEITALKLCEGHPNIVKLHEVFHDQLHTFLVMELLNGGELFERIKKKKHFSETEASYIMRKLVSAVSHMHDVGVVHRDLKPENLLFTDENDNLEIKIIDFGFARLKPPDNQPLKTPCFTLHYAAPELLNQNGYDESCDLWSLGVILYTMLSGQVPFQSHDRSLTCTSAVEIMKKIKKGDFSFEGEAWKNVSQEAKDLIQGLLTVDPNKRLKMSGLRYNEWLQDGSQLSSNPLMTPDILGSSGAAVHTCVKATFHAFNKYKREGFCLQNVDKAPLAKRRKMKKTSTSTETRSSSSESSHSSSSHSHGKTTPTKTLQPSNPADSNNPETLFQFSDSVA
Chain of UniProt P08069 (whole entry, looked up): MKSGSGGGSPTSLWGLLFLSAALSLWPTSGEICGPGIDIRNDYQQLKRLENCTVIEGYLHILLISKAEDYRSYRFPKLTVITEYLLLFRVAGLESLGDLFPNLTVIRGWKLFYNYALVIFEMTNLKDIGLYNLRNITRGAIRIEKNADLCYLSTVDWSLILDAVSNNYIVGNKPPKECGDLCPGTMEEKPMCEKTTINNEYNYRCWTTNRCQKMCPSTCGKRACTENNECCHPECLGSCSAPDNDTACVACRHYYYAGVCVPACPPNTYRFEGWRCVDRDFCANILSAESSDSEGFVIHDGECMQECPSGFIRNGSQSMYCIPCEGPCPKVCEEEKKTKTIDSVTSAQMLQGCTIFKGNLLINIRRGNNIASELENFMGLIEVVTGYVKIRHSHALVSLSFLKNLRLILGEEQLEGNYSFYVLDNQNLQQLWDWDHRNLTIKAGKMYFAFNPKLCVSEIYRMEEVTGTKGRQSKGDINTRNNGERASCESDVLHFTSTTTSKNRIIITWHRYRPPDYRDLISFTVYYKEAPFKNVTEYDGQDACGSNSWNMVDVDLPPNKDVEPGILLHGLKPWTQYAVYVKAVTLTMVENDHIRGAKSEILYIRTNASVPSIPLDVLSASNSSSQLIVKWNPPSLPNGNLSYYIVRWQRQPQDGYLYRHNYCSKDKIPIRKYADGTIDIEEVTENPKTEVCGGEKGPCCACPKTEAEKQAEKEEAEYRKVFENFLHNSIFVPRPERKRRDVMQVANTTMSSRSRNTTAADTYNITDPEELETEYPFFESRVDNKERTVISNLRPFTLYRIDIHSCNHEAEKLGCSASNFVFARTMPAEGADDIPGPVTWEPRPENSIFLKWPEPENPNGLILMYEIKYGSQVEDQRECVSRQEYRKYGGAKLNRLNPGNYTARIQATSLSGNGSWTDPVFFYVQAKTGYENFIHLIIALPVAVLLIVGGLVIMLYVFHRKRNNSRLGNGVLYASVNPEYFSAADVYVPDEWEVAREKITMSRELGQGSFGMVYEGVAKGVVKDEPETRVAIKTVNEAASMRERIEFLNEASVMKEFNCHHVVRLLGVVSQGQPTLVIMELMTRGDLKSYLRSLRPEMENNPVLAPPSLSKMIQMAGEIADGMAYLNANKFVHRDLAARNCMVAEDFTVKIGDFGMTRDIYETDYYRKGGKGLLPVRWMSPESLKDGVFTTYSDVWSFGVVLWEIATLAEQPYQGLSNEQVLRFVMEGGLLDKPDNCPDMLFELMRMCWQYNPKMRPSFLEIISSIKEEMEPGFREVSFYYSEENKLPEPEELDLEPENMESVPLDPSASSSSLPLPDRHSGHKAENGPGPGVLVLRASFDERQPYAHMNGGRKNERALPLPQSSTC
Chain of UniProt Q99683 (whole entry, looked up): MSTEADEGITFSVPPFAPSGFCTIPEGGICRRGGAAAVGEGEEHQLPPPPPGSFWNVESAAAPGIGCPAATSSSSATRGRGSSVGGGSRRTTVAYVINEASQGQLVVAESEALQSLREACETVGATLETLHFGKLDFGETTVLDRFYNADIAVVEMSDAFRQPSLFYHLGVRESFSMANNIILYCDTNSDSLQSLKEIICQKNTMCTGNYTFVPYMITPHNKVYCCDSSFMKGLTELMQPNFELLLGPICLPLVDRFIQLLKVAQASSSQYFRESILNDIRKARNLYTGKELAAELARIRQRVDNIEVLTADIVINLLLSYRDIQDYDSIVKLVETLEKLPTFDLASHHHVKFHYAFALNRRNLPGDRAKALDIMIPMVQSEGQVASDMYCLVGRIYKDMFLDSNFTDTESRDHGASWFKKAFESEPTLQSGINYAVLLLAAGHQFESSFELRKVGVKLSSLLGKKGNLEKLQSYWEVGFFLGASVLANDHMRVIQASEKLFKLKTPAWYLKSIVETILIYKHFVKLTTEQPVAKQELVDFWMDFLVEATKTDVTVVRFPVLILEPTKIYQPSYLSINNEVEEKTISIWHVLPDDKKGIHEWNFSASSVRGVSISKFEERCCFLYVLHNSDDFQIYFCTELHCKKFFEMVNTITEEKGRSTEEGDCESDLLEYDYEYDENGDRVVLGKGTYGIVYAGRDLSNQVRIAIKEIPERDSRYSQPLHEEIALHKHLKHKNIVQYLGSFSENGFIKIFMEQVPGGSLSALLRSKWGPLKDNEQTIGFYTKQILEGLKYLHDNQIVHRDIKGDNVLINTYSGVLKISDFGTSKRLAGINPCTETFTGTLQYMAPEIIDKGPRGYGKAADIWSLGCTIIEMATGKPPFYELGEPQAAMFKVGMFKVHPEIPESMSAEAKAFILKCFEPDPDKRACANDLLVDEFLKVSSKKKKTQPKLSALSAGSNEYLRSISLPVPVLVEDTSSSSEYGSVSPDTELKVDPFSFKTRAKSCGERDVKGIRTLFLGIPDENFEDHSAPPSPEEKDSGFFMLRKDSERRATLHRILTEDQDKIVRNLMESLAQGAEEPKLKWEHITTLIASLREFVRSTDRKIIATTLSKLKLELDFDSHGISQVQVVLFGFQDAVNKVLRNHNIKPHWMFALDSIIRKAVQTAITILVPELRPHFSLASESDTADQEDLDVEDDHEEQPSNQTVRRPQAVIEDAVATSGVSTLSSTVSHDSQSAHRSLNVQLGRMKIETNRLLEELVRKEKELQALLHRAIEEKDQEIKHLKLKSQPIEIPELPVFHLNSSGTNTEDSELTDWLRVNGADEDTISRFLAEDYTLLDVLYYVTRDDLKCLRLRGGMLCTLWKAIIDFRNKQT
Chain of UniProt P49840 (whole entry, looked up): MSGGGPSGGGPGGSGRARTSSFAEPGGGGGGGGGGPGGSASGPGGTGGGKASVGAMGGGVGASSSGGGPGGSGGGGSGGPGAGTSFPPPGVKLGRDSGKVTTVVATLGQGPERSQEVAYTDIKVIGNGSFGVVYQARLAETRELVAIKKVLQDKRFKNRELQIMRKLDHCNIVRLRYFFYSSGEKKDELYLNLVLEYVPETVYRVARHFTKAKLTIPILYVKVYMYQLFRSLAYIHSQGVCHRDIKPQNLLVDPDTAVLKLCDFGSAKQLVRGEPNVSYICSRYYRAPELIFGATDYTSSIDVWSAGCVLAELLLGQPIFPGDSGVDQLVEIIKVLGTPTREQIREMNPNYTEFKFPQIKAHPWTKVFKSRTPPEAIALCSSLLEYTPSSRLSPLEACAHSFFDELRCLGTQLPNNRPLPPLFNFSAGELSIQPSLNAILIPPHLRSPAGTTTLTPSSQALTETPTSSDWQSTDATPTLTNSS

Block 1 — observed: enzyme activity; action: inhibitor; concentration: 0.5 µM; reference: control
Target: Mitogen-activated protein kinase 13 (MAPK13, Homo sapiens, UniProt O15264)
Target sequence (O15264 1-365): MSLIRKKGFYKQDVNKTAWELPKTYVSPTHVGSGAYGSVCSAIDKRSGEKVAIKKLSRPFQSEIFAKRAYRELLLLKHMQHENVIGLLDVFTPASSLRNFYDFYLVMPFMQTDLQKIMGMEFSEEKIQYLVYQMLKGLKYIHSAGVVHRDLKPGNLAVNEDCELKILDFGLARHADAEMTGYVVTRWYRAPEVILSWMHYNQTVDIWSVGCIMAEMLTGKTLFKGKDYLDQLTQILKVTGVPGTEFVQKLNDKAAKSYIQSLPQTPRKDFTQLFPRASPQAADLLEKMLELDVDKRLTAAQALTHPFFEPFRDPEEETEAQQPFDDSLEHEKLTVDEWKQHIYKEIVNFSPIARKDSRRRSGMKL
SMILES | remaining activity [%]
Cc1nc2cc3nc(-c4cccs4)cnc3cc2n1C | 99.7
c1ccc(-c2[nH]ncc2-c2ccnc3ccccc23)nc1 | 110
CCOc1nc(NC(=O)Cc2cc(OC)ccc2OC)cc(N)c1C#N | 106
N#Cc1c(NC(=O)c2cccc3ccccc23)sc2c1CCCC2 | 109
Cc1cc2ncc(-c3ccccc3)nc2cc1C | 107
O=C1C(Cl)=C(N2C(=O)CCC2=O)C(=O)c2ccccc21 | 106
Cn1nc2c3c(cccc31)C(=O)c1ccccc1-2 | 106
COc1cc2c(cc1OC)-c1[nH]nc(Nc3cccc(F)c3)c1C2 | 99.7
O=C1c2ccccc2-c2n[nH]c3cccc1c23 | 99.4
O=c1cc(-c2cccc3c2Sc2ccccc2S3)oc(N2CCOCC2)c1 | 101
CCN(CC)CCNC(=O)c1c(C)[nH]c(/C=C2\C(=O)Nc3ccc(F)cc32)c1C | 92.4
O=C(NC(NC(=S)Nc1ccc(F)c([N+](=O)[O-])c1)C(Cl)(Cl)Cl)C(c1ccccc1)c1ccccc1 (centres unmarked) | 107
Ic1cccc(CSc2nnc(-c3ccncc3)o2)c1 | 93.8
CCN(CC)C(=O)c1ccc(Nc2nc(OCC3CCCCC3)c3[nH]cnc3n2)cc1 | 95.3
c1ccc(-c2cnc(Nc3ccc(OCCN4CCCC4)cc3)s2)cc1 | 104
Cc1cn(-c2cc(NC(=O)c3ccc(C)c(Nc4nccc(-c5cccnc5)n4)c3)cc(C(F)(F)F)c2)cn1 | 90.7
COc1cc2ncnc(Nc3ccc(O)c(Br)c3)c2cc1OC | 102
COc1cc2ncnc(Nc3cccc(Cl)c3)c2cc1OC | 99.8
CN(C)C[C@H]1CCn2c(c(C3=C(c4cn(C)c5ccccc45)C(=O)NC3=O)c3ccccc32)C1 | 117
N#C/C(=C\c1ccc(O)c(O)c1)C(=O)NCc1ccccc1 | 101
O=C(Nc1cccc(Nc2nccc(Nc3cccc(C(F)(F)F)c3)n2)c1)C1CC1 | 99.6
Nc1cccc(-c2cc3c(Oc4cccc(O)c4)ncnc3[nH]2)c1 | 104
CN([C@@H](Cc1ccc(OS(=O)(=O)c2cccc3cnccc23)cc1)C(=O)N1CCN(c2ccccc2)CC1)S(=O)(=O)c1cccc2cnccc12 | 102
CCN(CC)CCNC(=O)c1c(C)[nH]c(/C=C2\C(=O)Nc3ccc(Cl)cc32)c1C | 104

Block 2 — cell line: A-375; concentration: 100 µM; time: 18 h
SMILES | viability [%]
CCOc1ccc(Cc2cc([C@@H]3O[C@H](CO)[C@@H](O)[C@H](O)[C@H]3O)ccc2Cl)cc1 | 96.2
COc1cc2ccc(=O)oc2cc1OC | 94.4
[H]/N=C(/N)NS(=O)(=O)c1ccc(N)cc1 | 96.7
Nc1nc(=O)n([C@@H]2CS[C@H](CO)O2)cc1F | 95.7
Cc1ccc(C(=O)Nc2ccc(S(=O)(=O)O)c3cc(S(=O)(=O)O)cc(S(=O)(=O)O)c23)cc1NC(=O)c1cccc(NC(=O)Nc2cccc(C(=O)Nc3cc(C(=O)Nc4ccc(S(=O)(=O)O)c5cc(S(=O)(=O)O)cc(S(=O)(=O)O)c45)ccc3C)c2)c1 | 104
CO[C@H]1C[C@@H]2CC[C@@H](C)[C@@](O)(O2)C(=O)C(=O)N2CCCC[C@H]2C(=O)O[C@H]([C@H](C)C[C@@H]2CC[C@@H](OCCO)[C@H](OC)C2)CC(=O)[C@H](C)/C=C(\C)[C@@H](O)[C@@H](OC)C(=O)[C@H](C)C[C@H](C)/C=C/C=C/C=C/1C | 24.8
O=C(O)Cc1cc(I)c(Oc2ccc(O)c(I)c2)c(I)c1 | 64.6

Block 3 — observed: cell-free assay; technique: competition with immobilised ligand; concentration: 1 µM
Compound: CC(=O)C1=C(C)N(c2cccc(C(F)(F)F)c2)C(=O)N[C@@H]1c1ccc(C#N)nc1
target | remaining binding
FLT3 (Homo sapiens, UniProt P36888, N841I) | 73.8%
PKMYT1 (Homo sapiens, UniProt Q99640) | 90.6%
CSNK2A1 (Homo sapiens, UniProt P68400) | 94.8%
BRAF (Homo sapiens, UniProt P15056, V600E) | 100%
SRPK3 (Homo sapiens, UniProt Q9UPE1) | 100%
PIK3CA (Homo sapiens, UniProt P42336, E545A) | 75.6%
CDC42BPA (Homo sapiens, UniProt Q5VT25) | 100%
IGF1R (Homo sapiens, UniProt P08069) | 100%
MAP3K5 (Homo sapiens, UniProt Q99683) | 94.8%
RET (Homo sapiens, UniProt P07949, V804M) | 100%
CDK9 (Homo sapiens, UniProt P50750) | 100%
GSK3A (Homo sapiens, UniProt P49840) | 95%
ACVR2B (Homo sapiens, UniProt Q13705) | 87.5%
Ribosomal protein S6 kinase alpha-5, C-terminal kinase domain (RPS6KA5, Homo sapiens, UniProt O75582) | 83.4%
MERTK (Homo sapiens, UniProt Q12866) | 100%
STK17B (Homo sapiens, UniProt O94768) | 100%

Block 4 — host: mouse; sample: microsomes or S9; concentration: 2 µM; time: 0.5 h
SMILES | remaining compound [%]
CCN(CC)C(=O)c1nc2cc(-c3ccc(C#N)cc3)sc2c(=O)[nH]1 | 76.8
Cc1nc(C(C)C)sc1C(C)NCC1CCCS1(=O)=O (centres unmarked) | 16.3
COc1ccccc1CCN[C@H]1CS(=O)(=O)C[C@@H]1S(=O)(=O)c1ccc(Cl)cc1 | 1.04
O=C1CC(c2ccc3c(c2)OCO3)CC2=C1C(c1ccncc1)Nc1ccccc1N2 (centres unmarked) | 46.5
COc1ccccc1NC(=O)Cn1c(=O)c2ccccc2n2nnc(-c3ccccc3)c12 | 1.49
Cc1nc(CCN2CC3(CCNCC3)CCC2=O)sc1Cl | 61.3
